# Published values collected from several papers.
# Every numbered part comes from another study and shows a few of its results, in no order. Substitutions count along the parent as printed.

# Study 1 — technique: protein-binding microarray; form: double-stranded DNA, one strand shown; sample: in vitro; concentration: 250 nM; notes: 60-bp whole probe; together with: salmon DNA 0.4 mg/ml; relative to: random background probes; reading: higher = stronger binding; all sequences stand within: GCCTAGCAC … GTCTTGATTCGCTTGACGCTGCTG
# Target: Interferon regulatory factor 7, full length, phosphomimetic (IRF7, Homo sapiens, UniProt Q92985, residues 1-503, S101K/S471D/S472D/S475D/S476D/S477D/S483D/S484D/S487D)
# Sequence of UniProt Q92985 (whole entry, unmodified, looked up): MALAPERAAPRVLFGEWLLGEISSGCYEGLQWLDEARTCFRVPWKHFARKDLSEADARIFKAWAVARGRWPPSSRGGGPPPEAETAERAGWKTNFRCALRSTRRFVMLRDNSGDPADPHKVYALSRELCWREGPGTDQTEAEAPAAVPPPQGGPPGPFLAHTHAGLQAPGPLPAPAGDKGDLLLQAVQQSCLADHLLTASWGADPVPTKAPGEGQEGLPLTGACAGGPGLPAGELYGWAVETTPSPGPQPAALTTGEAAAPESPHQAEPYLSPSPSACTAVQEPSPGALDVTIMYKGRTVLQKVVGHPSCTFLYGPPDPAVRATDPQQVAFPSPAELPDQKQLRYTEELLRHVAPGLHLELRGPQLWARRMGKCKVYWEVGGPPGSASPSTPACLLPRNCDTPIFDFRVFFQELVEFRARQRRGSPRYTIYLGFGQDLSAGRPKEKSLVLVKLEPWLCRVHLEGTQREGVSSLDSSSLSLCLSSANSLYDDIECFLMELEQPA
Oligonucleotide,log fluorescence
TCAAGTTTCTCAACCACACTGTGCTAG,0.647 z-score
TTATATTTCGGGTTTCGATTAGTGCTA,7.74 z-score
GACGGTTTCGACTTTCGGTACGTGCTA,11.4 z-score
GATGATTTCAGTATCGAGACGTGCTAG,0.379 z-score
GACGGACTGCTTTTCTTGACGTGCTAG,0.0693 z-score
TTAGGTATCGACTATCCGTTAGTGCTA,0.472 z-score
CCACTTTCACTTCTCCCTTTGTGCTAG,5.07 z-score
TGCCCTCTCCATACTTCCCAGTGCTAG,0.715 z-score
GACGATATCAGTCTCGGGACGTGCTAG,0.157 z-score
TTAGGACTGCCTTTCCTTTAGTGCTAG,0.578 z-score
GACGGTTTCAGACTGGAGACGTGCTAG,0.536 z-score
TTCATTTTTTTTTTCATCATGTGCTAG,0.762 z-score
TTAGAACTGAGTATCGATTTGTGCTAG,2.59 z-score
GACGGACTGGGGACTGGAGACGTGCTA,-0.766 z-score
TTAGGATTGGGTTTCGGTTAGTGCTAG,6.87 z-score
GACGCTCTCCTTCTCCTGACGTGCTAG,0.285 z-score
TTAGGTATCGGTCCCGGTTAGTGCTAG,0.927 z-score
TCAAGCTTCCATTTTCTACTGTGCTAG,0.527 z-score
TTAGCACTGCTTCTCCTTTAGTGCTAG,-0.0795 z-score

# Study 2 — technique: RNAcompete; form: RNA; sample: in vitro; concentration: 20 nM; notes: 7-mer, probes averaged, single round; relative to: mean of 7-mers; reading: higher = stronger binding
# Target: PABPC1L2, full length, GST fusion (mouse, UniProt A0ABA7IW68)
# Residues (chain): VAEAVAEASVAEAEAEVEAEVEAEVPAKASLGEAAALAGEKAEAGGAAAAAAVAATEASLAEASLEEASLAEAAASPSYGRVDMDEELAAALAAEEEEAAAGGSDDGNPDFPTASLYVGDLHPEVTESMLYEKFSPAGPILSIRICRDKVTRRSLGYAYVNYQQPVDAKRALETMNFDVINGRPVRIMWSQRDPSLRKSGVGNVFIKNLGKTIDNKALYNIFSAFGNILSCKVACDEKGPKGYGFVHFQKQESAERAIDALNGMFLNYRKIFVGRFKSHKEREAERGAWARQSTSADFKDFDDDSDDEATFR
Oligonucleotide,7-mer Z-score
AACGGAU,0.173
AAUAAUC,0.403
CCUUCAA,-0.162
CCAUAAG,-0.226
GCUCGAG,-0.336
GGGUCUC,-0.0808
CGGUUAA,0.119
CGCUAGU,-0.364
UAGAAUG,-0.11
CAGAUAG,0.075
UGAGGAU,-0.0663
AAUUGUG,0.177
GAUGUAA,0.108
GCCGAGG,-0.0609
CUAUUGC,-0.342
ACAUUAA,0.155
AAGUUCC,-0.021
CAACUGA,-0.012
GUGUCCG,-0.253
UGUUCGU,-0.541
GCCCACG,-0.246
GUGUCAG,-0.139

# Study 3 — target: CCNF, cyclin fold, Cln2 fusion (human); technique: yeast growth competition, sequencing; sample: yeast; notes: strong parent motif; relative to: not given; reading: higher = stronger binding
# Parent: CDC25A docking peptide (human); PPHRRRLLFACSP
Variant,normalised enrichment score
P13D,8.79
P1I,7.64
P13W,5.68
L7I,3.28
P1C,7.32
R6P,0.992
R4T,4.58
L7S,1.17
F9T,1.43
A10Y,6.97
L7R,1.92
L8G,2.51
F9A,1.58
F9S,1.86
R4Q,5.94
F9G,1.23
R4Y,2.78
C11E,8.43
P13Y,7.77
L8N,6.8
H3N,4.17
F9V,1.8
S12W,6.05
P2H,6.69
S12Q,6.59

# Study 4 — technique: universal PBM; form: double-stranded DNA, one strand shown; sample: in vitro; concentration: 600 nM; reading: higher = stronger binding
# Target: Sal-like protein 4, full length isoform A (SALL4, Homo sapiens, UniProt Q9UJQ4, residues 1-1053)
# Sequence of UniProt Q9UJQ4 (whole entry, looked up): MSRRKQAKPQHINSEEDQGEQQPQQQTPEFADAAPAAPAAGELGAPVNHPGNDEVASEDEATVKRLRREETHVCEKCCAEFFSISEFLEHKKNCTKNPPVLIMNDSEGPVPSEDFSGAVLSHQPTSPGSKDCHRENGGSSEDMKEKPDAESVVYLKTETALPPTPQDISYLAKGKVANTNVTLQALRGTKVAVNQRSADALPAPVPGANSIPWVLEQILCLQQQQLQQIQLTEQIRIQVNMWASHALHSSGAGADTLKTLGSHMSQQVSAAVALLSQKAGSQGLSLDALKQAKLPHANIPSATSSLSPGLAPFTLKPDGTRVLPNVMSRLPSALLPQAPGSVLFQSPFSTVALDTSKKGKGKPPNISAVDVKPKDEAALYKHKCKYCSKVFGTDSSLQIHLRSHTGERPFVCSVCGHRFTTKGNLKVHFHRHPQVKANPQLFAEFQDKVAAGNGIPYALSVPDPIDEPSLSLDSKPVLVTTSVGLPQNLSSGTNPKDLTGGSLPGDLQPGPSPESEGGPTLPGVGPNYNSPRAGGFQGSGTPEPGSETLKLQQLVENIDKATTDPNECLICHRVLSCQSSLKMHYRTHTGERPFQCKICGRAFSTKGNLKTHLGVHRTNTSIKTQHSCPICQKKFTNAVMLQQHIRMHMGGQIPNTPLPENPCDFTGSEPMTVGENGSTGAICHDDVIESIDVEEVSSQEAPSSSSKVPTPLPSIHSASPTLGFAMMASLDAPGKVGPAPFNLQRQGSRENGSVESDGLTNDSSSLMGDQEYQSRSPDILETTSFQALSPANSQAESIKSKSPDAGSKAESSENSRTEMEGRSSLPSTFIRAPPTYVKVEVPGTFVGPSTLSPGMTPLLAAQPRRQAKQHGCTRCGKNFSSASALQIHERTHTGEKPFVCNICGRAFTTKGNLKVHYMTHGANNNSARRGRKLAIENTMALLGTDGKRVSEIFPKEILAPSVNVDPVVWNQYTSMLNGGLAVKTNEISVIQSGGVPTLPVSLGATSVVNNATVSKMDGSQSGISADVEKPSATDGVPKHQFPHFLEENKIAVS
# Notes: 8-mer, flanks averaged, mean of replicates
Oligonucleotide,E-score
CCCTATCC,-0.305
AGTGACAC,0.0155
AACGCTCG,-0.113
CCCAACTC,-0.0514
ATGAAGTG,0.182
AGGTTCCC,-0.262
CCATCACA,-0.051
ATAGTAGA,0.287
CTTCGTCC,-0.219
GATACTGA,0.0946
AGATGAAT,0.211
GATTGCCA,-0.156
CTACATAC,0.3
TTAACAAA,0.324
AGGCCCGC,-0.339
CCAGAATC,-0.141
CTGGTCCA,-0.247
CAGAGTGA,-0.0357
GTGAGTAA,-0.0195
ACCGCATG,-0.0874
CACTCGAC,-0.151

# Study 5 — technique: RNA Bind-n-Seq; form: RNA; sample: in vitro; concentration: 365 nM; relative to: no-protein control; reading: higher = stronger binding
# Target: RNA binding protein fox-1 homolog 2, RRM domain, GST-SBP tag (RBFOX2, Homo sapiens, UniProt O43251-10, residues 100-194)
# Notes: natural RNA segment, single round, ends assumed
# All sequences stand within: GGGAGUUCUACAGUCCGACGAUC … UGGAAUUCUCGGGUGCCAA
Oligonucleotide,RBNS enrichment (R)
GCCUCGCCUUGUGUUACGAUAUUUCGUUUGGUCUUAGGUCUUCCUGUGGCUCCCUCUCUCCUGGACUGGUUAUCUUGUUAUUAUUGUUAAUAAUAAUUAUUAUUAUUAUU,1.06
GUGAAUGUUCAUGUAUGACCUACUUGUAAUUAACUUGAGUUGUAGUCCACAGCCUCAGGACAAAUGUCGUUGAGGUUACAGAGUAAGAAAUGAUGGCAAAACGUCAAACU,0.415
AGGAAUAUUCAUAGCACUUGUCACAAAUAGAAGGCAACCAUGAGAUAAUACAAGCCAGGGAGAGGCUUGUAUUACAUGACAGGUGUAAUUAGUCUGCUGAGCCAGCUUUA,0.942
GGUGAAGGAAGGCAUCCCUUGUGGGGCAUUUCACUUCUUCCCACUCCCCAAAUAAUGUUACACAUGGCAGUACUCAUGUUCCCCUUGAUUCCCAGGGACGUCGCGCCUUG,0.423
AGCAAAAUCACCCUCUGGCCCCUUGGCAGGUAAGGCCUCCCGGUCAGCAUUAUCCUGCCAGACCUCGGGGAGGAUACCUGGGAGACAGAAGCCUCUGCACCUACUGUGCA,1.04
ACUGAAGCCCUGCCACUGUUGCUAGUCAGGGGCUUGGUUCUCCCACUUACACUGUUGACAUCUAUUUUCUGAAGUGUGUUUAAAUUAUUCAGUGCUAAUCAUUGUUUUUU,0.662
UCUGUGAUUGCUUUCUAGCCAAAGCGAAGCUUGUACAGGUUGAGUAUCCCUUAUCCAAAAUGCUUGGAACCAGAAGUGUUUCAAAUUUUAGAUUAUUUUCAGAUUUUGGA,0.385
GUCAUACCCAAUGCUCAGUGGAUCAUGACCAAACUCCUGUCAUGUGGAUGCACGUGAGUGGGUAGCAGGGAGUCAGGAUCCUGCCUUCUCCAGCAACCCCUUACUGCUGU,0.59

# Excerpt of the above (study 2):
Oligonucleotide,7-mer Z-score
AAGUUCC,-0.021
GCUCGAG,-0.336
AAUUGUG,0.177
UGAGGAU,-0.0663
GCCCACG,-0.246
CUAUUGC,-0.342
CAGAUAG,0.075
GUGUCCG,-0.253
GGGUCUC,-0.0808
GUGUCAG,-0.139
AAUAAUC,0.403
CGGUUAA,0.119
UAGAAUG,-0.11
